Measured values pooled from the literature.
pIC50: −log10 of the molar value.
Cell line: Vero E6

`COc1ccc2c(O[C@@H]3C[C@H]4C(=O)N[C@]5(C(=O)NS(=O)(=O)C6CC6)C[C@H]5/C=C\CCCCN(C)C(=O)[C@@H]4C3)cc(-c3nc(C(C)C)cs3)nc2c1C` gave a CC50 of 2100 nM (cell viability, MTT; 48 (unit not given)).
`Cc1oc(-c2ccccc2)nc1CCC(=O)c1ccc(CC2SC(=O)NC2=O)cc1` (centres unmarked) gave a CC50 of 34700 nM (3 (unit not given)).
`NC(=O)c1nc(F)c[nH]c1=O`: “unbound fraction in cells” 0.013 (concentration not given, 4 (unit not given), together with: verapamil).
With `CC(C)=CCN1Cc2cc(Cl)cc3[nH]c(=S)n(c23)C[C@@H]1C` the CC50 was greater than 2500 nM (cell number; 40 (unit not given)).
The CC50 of `C=C[C@@H]1C[C@]1(NC(=O)[C@@H]1C[C@@H](Oc2ncc(OC)c3ccc(Cl)cc23)CN1C(=O)[C@@H](NC(=O)OC(C)(C)C)C(C)(C)C)C(=O)NS(=O)(=O)C1CC1` is reported as 48900 nM (cell viability, MTT; 48 (unit not given)).
`CC(C)=CCc1c(O)ccc(C(=O)/C=C/c2ccc(O)cc2)c1O` has a cytotoxicity of 0% (12.5 µM).
For `CC(C)(C)NCc1ccc(Nc2ccnc3cc(Cl)ccc23)cc1O`, the CC50 was greater than 2500 nM (cell number; 40 (unit not given)).
With `Cc1nn(-c2ccc(Cl)cc2)c2c1C(c1ccc(-c3ccccc3)cc1)C(C#N)=C(N)O2` (centres unmarked) the viability was 54.1% (MTT; 25 µM).
Under “unbound fraction in cells”, `CCC(CC)COC(=O)[C@H](C)N[P@](=O)(OC[C@H]1O[C@@](C#N)(c2ccc3c(N)ncnn23)[C@H](O)[C@@H]1O)Oc1ccccc1` is recorded as 0.0014 (concentration not given, 4 (unit not given), together with: verapamil).
With `Fc1ccc(-c2ccc(CN3CCN(c4cccc5ccoc45)CC3)[nH]2)cc1` the CC50 was greater than 2500 nM (cell number; 40 (unit not given)).
`O=C(/C=C/c1ccc(O)c(O)c1/C=C/c1ccc(O)c(O)c1)O[C@H](Cc1ccc(O)c(O)c1)C(=O)O` gave a cytotoxicity of 0% (25 µM).
`CCNC/C=C\CNCCCCNCCCCNC/C=C\CNCC` has a CC50 of greater than 2500 nM (cell number; 40 (unit not given)).
`COc1ccc(C[C@@H]2c3cc(Oc4cc(C[C@@H]5c6cc(O)c(OC)cc6CCN5C)ccc4O)c(OC)cc3CCN2C)cc1` gave a cytotoxicity of 0% (100 µM).
With `Cc1nn(-c2ccc(Cl)cc2)c2c1C(c1ccc(Cl)c(Cl)c1)C(C#N)=C(N)O2` (centres unmarked) the viability was 56.4% (MTT; 25 µM).
`NCC(=O)Nc1ccc(-n2nc(C(F)(F)F)cc2-c2ccc3c(ccc4ccccc43)c2)cc1` — result for “highest non-cytotoxic concentration”: less than 3 µM (MTT; 8 h).
For `CCN(CCO)CCCC(C)Nc1ccnc2cc(Cl)ccc12` (centres unmarked), the intracellular fraction was 0.469 (together with: verapamil).
The AC50 of `O=C(NCCCN1CCCCCC1)c1ccc2c(c1)sc1nc(-c3ccccc3)cn12` is reported as 14.1 µM (cytotoxicity, CellTiter-Glo; retest 8-point, no virus).
`C=C[C@@](C)(/C=C/c1ccc(O)cc1)CCC=C(C)C` gave a cytotoxicity of 0% (12.5 µM).
For `C=C[C@@H]1C[C@]1(NC(=O)[C@@H]1C[C@@H]2CN1C(=O)[C@H](C(C)(C)C)NC(=O)O[C@@H]1C[C@H]1CCCCCc1nc3ccc(OC)cc3nc1O2)C(=O)NS(=O)(=O)C1CC1`, the CC50 was greater than 50000 nM (cell viability, MTT).
With `C1=C(c2ccc(CN3CCCCC3)cc2)N2CCN=C2c2ccccc21` the CC50 was greater than 2500 nM (cell number; 40 (unit not given)).
`Cc1ccc(C)c(Nc2cc(C(=O)NCCCN(C)C3CCCCC3)c3ccccc3n2)c1` gave an AC50 of 14.1 µM (cytotoxicity, CellTiter-Glo; retest 8-point, no virus).
For `COc1ccc2cc1Oc1ccc(cc1)C[C@H]1c3cc(c(OC)cc3CCN1C)Oc1c(OC)c(OC)cc3c1[C@H](C2)N(C)CC3`, the CC50 was greater than 2500 nM (cell number; 40 (unit not given)).
`O=C(O[C@@H]1Cc2c(O)cc(O)cc2O[C@@H]1c1cc(O)c(O)c(O)c1)c1cc(O)c(O)c(O)c1` gave a cytotoxicity of 100% (200 µM).
`C[C@H](CCC(=O)O)[C@H]1CC[C@H]2[C@@H]3[C@@H](O)C[C@@H]4C[C@H](O)CC[C@]4(C)[C@H]3CC[C@]12C` has a pIC50 of less than 4.00 (cytotoxicity, MTT; 24 h).
With `CC(C)(O)c1ccc2c(c1)C(=CCCN1CCC(O)(c3ccc(Cl)cc3)C(C)(C)C1)c1cccnc1CO2` (centres unmarked) the CC50 was greater than 2500 nM (cell number; 40 (unit not given)).
For `Cc1ccc(Nc2ccnc(N3CCC(C(=O)NCCCc4ccccc4)CC3)n2)cc1`, the AC50 was 14.1 µM (cytotoxicity, CellTiter-Glo; retest 8-point, no virus).

A few entries again:
With `Cc1nn(-c2ccc(Cl)cc2)c2c1C(c1ccc(Cl)c(Cl)c1)C(C#N)=C(N)O2` (centres unmarked) the viability was 56.4% (MTT; 25 µM).
`NCC(=O)Nc1ccc(-n2nc(C(F)(F)F)cc2-c2ccc3c(ccc4ccccc43)c2)cc1` — result for “highest non-cytotoxic concentration”: less than 3 µM (MTT; 8 h).
For `CCN(CCO)CCCC(C)Nc1ccnc2cc(Cl)ccc12` (centres unmarked), the intracellular fraction was 0.469 (together with: verapamil).
